{"data": "Assay results collected from several papers", "note": "Parts stem from different laboratories: compare values within a part only. Positions count from the first letter of the parent shown."}
{"data": "Block 1", "target": "Prothrombin, mature alpha-thrombin (F2, Homo sapiens, UniProt P00734)", "method": "aptamer microarray, sandwich", "form": "DNA with 2'F-ANA", "matrix": "in vitro", "tested at": "200 nM", "notes": "whole 15-mer aptamer, many near background", "added": "Cy3 exosite-II aptamer, 400 nM", "direction": "higher = stronger binding", "oligonucleotide": "GGTTGGTGTGGTTGG"}
{"Modification": "2'F-ANA at 3 4 5 8 9 10 12", "mean fluorescence intensity [a.u.]": 59.5}
{"Modification": "2'F-ANA at 1 5 6 7 8 9 10 14 15", "mean fluorescence intensity [a.u.]": 58.3}
{"Modification": "2'F-ANA at 2 6 12", "mean fluorescence intensity [a.u.]": 681}
{"Modification": "2'F-ANA at 1 2 3 4 6 8 9 11 13 15", "mean fluorescence intensity [a.u.]": 110}
{"Modification": "2'F-ANA at 3 5 6 8 11", "mean fluorescence intensity [a.u.]": 98.7}
{"Modification": "2'F-ANA at 1 2 4 7 10 11 12", "mean fluorescence intensity [a.u.]": 53.6}
{"Modification": "2'F-ANA at 3 4 5 7 8 10 11 12 13", "mean fluorescence intensity [a.u.]": 56.8}
{"Modification": "2'F-ANA at 1 2 3 4 5 7 8 10 15", "mean fluorescence intensity [a.u.]": 48.3}
{"Modification": "2'F-ANA at 2 4 7 8 11 12 13", "mean fluorescence intensity [a.u.]": 563}
{"Modification": "2'F-ANA at 5 9 10 12 14", "mean fluorescence intensity [a.u.]": 155}
{"Modification": "2'F-ANA at 2 3 4 6 11 14", "mean fluorescence intensity [a.u.]": 203}
{"Modification": "2'F-ANA at 1 4 5 6 7 9 10 12 13 15", "mean fluorescence intensity [a.u.]": 48}
{"Modification": "2'F-ANA at 1 2 3 5 6 10 12 15", "mean fluorescence intensity [a.u.]": 54.2}
{"Modification": "2'F-ANA at 1 2 3 5 6 7 8 9 10", "mean fluorescence intensity [a.u.]": 49.6}
{"Modification": "2'F-ANA at 2 5 7 10 11 12 13", "mean fluorescence intensity [a.u.]": 47.4}
{"Modification": "2'F-ANA at 2 3 4 5 6 9 11 13 14", "mean fluorescence intensity [a.u.]": 49.2}
{"Modification": "2'F-ANA at 2 6 7 9 10 11 12 14", "mean fluorescence intensity [a.u.]": 82.4}
{"Modification": "2'F-ANA at 1 3 5 6 11", "mean fluorescence intensity [a.u.]": 54.4}
{"Modification": "2'F-ANA at 4 10 11 13 14 15", "mean fluorescence intensity [a.u.]": 58.5}
{"Modification": "2'F-ANA at 2 7 14 15", "mean fluorescence intensity [a.u.]": 142}
{"data": "Block 2", "target": "Sal-like protein 4, full length isoform A (SALL4, Homo sapiens, UniProt Q9UJQ4, residues 1-1053)", "method": "universal PBM", "form": "double-stranded DNA, one strand shown", "matrix": "in vitro", "tested at": "600 nM", "notes": "8-mer, flanks averaged, mean of replicates", "direction": "higher = stronger binding", "chain of UniProt Q9UJQ4 (whole entry, looked up)": "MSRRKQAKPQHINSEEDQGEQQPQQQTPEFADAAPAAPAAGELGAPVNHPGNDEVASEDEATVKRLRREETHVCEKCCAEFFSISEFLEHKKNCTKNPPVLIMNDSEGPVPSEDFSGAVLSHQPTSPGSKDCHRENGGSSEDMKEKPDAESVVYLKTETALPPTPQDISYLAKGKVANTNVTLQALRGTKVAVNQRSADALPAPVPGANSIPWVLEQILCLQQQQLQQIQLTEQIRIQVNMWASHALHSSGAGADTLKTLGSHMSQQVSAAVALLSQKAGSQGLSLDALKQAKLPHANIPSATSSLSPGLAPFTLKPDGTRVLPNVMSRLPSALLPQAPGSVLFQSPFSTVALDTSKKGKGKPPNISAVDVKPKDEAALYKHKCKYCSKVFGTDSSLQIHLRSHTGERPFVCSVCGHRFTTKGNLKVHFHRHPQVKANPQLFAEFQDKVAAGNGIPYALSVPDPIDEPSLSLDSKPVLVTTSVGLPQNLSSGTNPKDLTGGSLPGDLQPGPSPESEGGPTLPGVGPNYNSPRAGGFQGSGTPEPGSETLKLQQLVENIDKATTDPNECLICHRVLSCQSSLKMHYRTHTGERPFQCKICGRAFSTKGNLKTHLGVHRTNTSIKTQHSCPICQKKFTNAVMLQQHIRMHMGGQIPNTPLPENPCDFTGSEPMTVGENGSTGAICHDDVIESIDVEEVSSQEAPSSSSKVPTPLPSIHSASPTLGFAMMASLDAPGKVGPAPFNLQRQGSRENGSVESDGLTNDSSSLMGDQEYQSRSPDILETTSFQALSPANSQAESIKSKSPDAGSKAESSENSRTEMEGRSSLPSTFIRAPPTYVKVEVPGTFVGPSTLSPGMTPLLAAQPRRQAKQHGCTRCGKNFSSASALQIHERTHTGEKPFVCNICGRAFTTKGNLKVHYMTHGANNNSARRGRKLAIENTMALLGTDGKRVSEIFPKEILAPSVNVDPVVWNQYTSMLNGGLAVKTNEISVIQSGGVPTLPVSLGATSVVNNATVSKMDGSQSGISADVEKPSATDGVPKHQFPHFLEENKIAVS"}
{"Oligonucleotide": "CCATCCCA", "E-score": -0.0188}
{"Oligonucleotide": "GTGCACCA", "E-score": -0.0978}
{"Oligonucleotide": "CAGTCAGC", "E-score": -0.198}
{"Oligonucleotide": "CCGGCGAG", "E-score": -0.334}
{"Oligonucleotide": "CTTTCAGC", "E-score": -0.0744}
{"Oligonucleotide": "CAAATTTG", "E-score": 0.0779}
{"Oligonucleotide": "ATCCGGGA", "E-score": -0.189}
{"Oligonucleotide": "ACCCGACA", "E-score": -0.264}
{"Oligonucleotide": "GAATCCGC", "E-score": -0.277}
{"Oligonucleotide": "CTGGTATA", "E-score": -0.0301}
{"Oligonucleotide": "AGAGCACA", "E-score": -0.0885}
{"Oligonucleotide": "TTTGAAAA", "E-score": 0.376}
{"Oligonucleotide": "TGTAATAA", "E-score": 0.413}
{"Oligonucleotide": "AACTGAAG", "E-score": 0.108}
{"Oligonucleotide": "ACCTATGC", "E-score": 0.0573}
{"Oligonucleotide": "ATTGCACA", "E-score": 0.168}
{"Oligonucleotide": "ATAACCAG", "E-score": 0.267}
{"Oligonucleotide": "AGGTGTAC", "E-score": -0.0298}
{"Oligonucleotide": "AGGACACG", "E-score": -0.245}
{"Oligonucleotide": "AGTACCGC", "E-score": -0.0621}
{"Oligonucleotide": "CAGTAACC", "E-score": -0.167}
{"Oligonucleotide": "TACGGCAA", "E-score": 0.0237}
{"data": "Block 3", "target": "JUND, bZIP domain (human)", "method": "DHFR protein complementation", "matrix": "yeast", "notes": "single substitutions, most at no-binding floor", "reference": "wild-type JUN-FOS pair", "direction": "higher = stronger binding", "parent": "JUN, bZIP domain (human); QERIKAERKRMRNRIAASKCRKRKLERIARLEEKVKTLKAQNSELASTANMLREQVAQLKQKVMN; partner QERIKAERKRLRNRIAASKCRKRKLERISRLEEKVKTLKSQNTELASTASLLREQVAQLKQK"}
{"Variant": "E44F", "binding fitness [natural log]": -0.866}
{"Variant": "A40H", "binding fitness [natural log]": -0.786}
{"Variant": "A57N", "binding fitness [natural log]": -0.648}
{"Variant": "M51T", "binding fitness [natural log]": -0.641}
{"Variant": "M51G", "binding fitness [natural log]": -0.796}
{"Variant": "R30N", "binding fitness [natural log]": -0.771}
{"Variant": "A49E", "binding fitness [natural log]": -1.12}
{"Variant": "T37D", "binding fitness [natural log]": -0.551}
{"Variant": "M51V", "binding fitness [natural log]": -0.735}
{"Variant": "K36R", "binding fitness [natural log]": -0.556}
{"Variant": "V35C", "binding fitness [natural log]": -0.912}
{"Variant": "A46W", "binding fitness [natural log]": -0.977}
{"Variant": "K34A", "binding fitness [natural log]": -0.517}
{"Variant": "S43E", "binding fitness [natural log]": -0.365}
{"Variant": "M51W", "binding fitness [natural log]": -0.961}
{"Variant": "R30A", "binding fitness [natural log]": -0.348}
{"Variant": "R53Q", "binding fitness [natural log]": -1.03}
{"Variant": "A40D", "binding fitness [natural log]": -0.726}
{"Variant": "K34E", "binding fitness [natural log]": -0.262}
{"Variant": "K36G", "binding fitness [natural log]": -1.18}
{"Variant": "E33C", "binding fitness [natural log]": -1.1}
{"Variant": "K36H", "binding fitness [natural log]": -0.899}
{"Variant": "A49N", "binding fitness [natural log]": -0.388}
{"Variant": "E44Q", "binding fitness [natural log]": -0.754}
{"Variant": "S47K", "binding fitness [natural log]": -0.312}
{"data": "Block 4", "target": "Histone acetyltransferase KAT6A, winged helix 1, GST fusion (KAT6A, Homo sapiens, UniProt Q92794, residues 1-85)", "method": "protein binding microarray", "form": "double-stranded DNA, one strand shown", "matrix": "in vitro", "tested at": "not given", "notes": "8-mer, flanks averaged, mean of 2 arrays, mostly near background", "reference": "not given", "direction": "higher = stronger binding", "Target sequence (chain)": "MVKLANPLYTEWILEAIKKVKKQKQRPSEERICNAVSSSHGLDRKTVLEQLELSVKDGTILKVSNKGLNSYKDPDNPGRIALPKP"}
{"Oligonucleotide": "GAGCAAGC", "E-score": -0.0682}
{"Oligonucleotide": "GGGGAACC", "E-score": 0.00328}
{"Oligonucleotide": "CCGCAGCA", "E-score": 0.162}
{"Oligonucleotide": "TCCAACGA", "E-score": -0.235}
{"Oligonucleotide": "AGTGTAAA", "E-score": -0.0707}
{"Oligonucleotide": "ACTGCTTG", "E-score": -0.214}
{"Oligonucleotide": "CCAGAATC", "E-score": -0.165}
{"Oligonucleotide": "CCCTGAAC", "E-score": 0.0212}
{"Oligonucleotide": "CTAGCCAC", "E-score": -0.144}
{"Oligonucleotide": "CCTGCGTA", "E-score": 0.0534}
{"Oligonucleotide": "AATATGCT", "E-score": -0.166}
{"Oligonucleotide": "ACGACGTC", "E-score": 0.0933}
{"Oligonucleotide": "GGGGATAC", "E-score": 0.0312}
{"Oligonucleotide": "CGGAGCCG", "E-score": 0.422}
{"Oligonucleotide": "AGGTCGAC", "E-score": -0.27}
{"Oligonucleotide": "GGATGAAA", "E-score": -0.0856}
{"Oligonucleotide": "GTACTAGA", "E-score": -0.0978}
{"Oligonucleotide": "TCCCTGCA", "E-score": -0.0847}
{"Oligonucleotide": "GCTGTAGA", "E-score": -0.0506}
{"Oligonucleotide": "CATGGTTA", "E-score": -0.048}
{"Oligonucleotide": "ATGATATG", "E-score": -0.00523}
{"Oligonucleotide": "AAGCTAGA", "E-score": -0.262}
{"data": "Block 5", "target": "Interferon regulatory factor 7, full length, phosphomimetic (IRF7, Homo sapiens, UniProt Q92985, residues 1-503, S101K/S471D/S472D/S475D/S476D/S477D/S483D/S484D/S487D)", "method": "protein-binding microarray", "form": "double-stranded DNA, one strand shown", "matrix": "in vitro", "tested at": "250 nM", "notes": "60-bp whole probe", "added": "salmon DNA 0.4 mg/ml", "reference": "random background probes", "direction": "higher = stronger binding", "all sequences stand within": "GCCTAGCAC … GTCTTGATTCGCTTGACGCTGCTG", "Construct (chain)": "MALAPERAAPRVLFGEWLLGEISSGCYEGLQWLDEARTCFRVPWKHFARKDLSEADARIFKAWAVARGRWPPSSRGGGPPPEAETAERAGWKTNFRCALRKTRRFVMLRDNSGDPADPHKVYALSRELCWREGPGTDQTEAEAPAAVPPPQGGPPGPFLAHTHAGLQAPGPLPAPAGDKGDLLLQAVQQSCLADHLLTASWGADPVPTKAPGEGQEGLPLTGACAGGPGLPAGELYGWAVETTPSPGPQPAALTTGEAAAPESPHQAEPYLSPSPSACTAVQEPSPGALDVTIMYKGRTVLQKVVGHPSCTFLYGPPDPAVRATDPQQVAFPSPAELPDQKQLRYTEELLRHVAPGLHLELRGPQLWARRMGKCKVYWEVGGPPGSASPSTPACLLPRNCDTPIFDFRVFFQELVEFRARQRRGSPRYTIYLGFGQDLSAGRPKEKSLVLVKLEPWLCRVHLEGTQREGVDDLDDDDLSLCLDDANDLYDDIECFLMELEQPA"}
{"Oligonucleotide": "TGAGGTATCGACTTTCGGTTAGTGCTA", "log fluorescence [z-score]": 2.48}
{"Oligonucleotide": "TTCGGTTTCCTTATCCTTTAGTGCTAG", "log fluorescence [z-score]": 3.72}
{"Oligonucleotide": "GATGGTATCGGACTGGGGACGTGCTAG", "log fluorescence [z-score]": -0.245}
{"Oligonucleotide": "GACGGACTGCTACTTCTGACGTGCTAG", "log fluorescence [z-score]": -0.553}
{"Oligonucleotide": "TTAGGTTTCAGTTTCGATTAGTGCTAG", "log fluorescence [z-score]": 11.8}
{"Oligonucleotide": "GACGGTATCGACAGTGGGGACGTGCTA", "log fluorescence [z-score]": -0.428}
{"Oligonucleotide": "TTAGGACTGCTATTCCTTTAGTGCTAG", "log fluorescence [z-score]": 0.0106}
{"Oligonucleotide": "GCTAGTGTGCCATATTTATCTGTGCTA", "log fluorescence [z-score]": -1.05}
{"Oligonucleotide": "TCAGCTCCCTTTCTCTCACTGTGCTAG", "log fluorescence [z-score]": 0.307}
{"Oligonucleotide": "TTGGGTATCCTACTGCTTTAGTGCTAG", "log fluorescence [z-score]": -0.388}
{"Oligonucleotide": "GCCGGTTTCGACACTGGGGACGTGCTA", "log fluorescence [z-score]": 4.66}
{"Oligonucleotide": "GACGGTATCGGGACTGCGGACGTGCTA", "log fluorescence [z-score]": -0.41}
{"Oligonucleotide": "TTAGAACTGAGACTGGTTTAGTGCTAG", "log fluorescence [z-score]": -0.0434}
{"Oligonucleotide": "TTAGGACTGGGTCTCGGTTTGTGCTAG", "log fluorescence [z-score]": 4.11}
{"Oligonucleotide": "TTAGATATCGGGTTTCAATTAGTGCTA", "log fluorescence [z-score]": 0.97}
{"Oligonucleotide": "GAAGATTTCAGTTTCGAGACGTGCTAG", "log fluorescence [z-score]": 5.51}
{"Oligonucleotide": "AGAGTCACCCATCTCAGCAAGTGCTAG", "log fluorescence [z-score]": -0.459}
{"Oligonucleotide": "TTAGATATCGGGTATCAATTAGTGCTA", "log fluorescence [z-score]": 0.174}
{"Oligonucleotide": "GACGGGATCCTACTGCTGACGTGCTAG", "log fluorescence [z-score]": -0.398}
{"Oligonucleotide": "CTAATTCTCTTTTCACTTTCGTGCTAG", "log fluorescence [z-score]": 3.35}
{"note": "Some of these lines once more (block 4):"}
{"Oligonucleotide": "GGATGAAA", "E-score": -0.0856}
{"Oligonucleotide": "AGTGTAAA", "E-score": -0.0707}
{"Oligonucleotide": "GGGGATAC", "E-score": 0.0312}
{"Oligonucleotide": "AGGTCGAC", "E-score": -0.27}
{"Oligonucleotide": "CCGCAGCA", "E-score": 0.162}
{"Oligonucleotide": "TCCCTGCA", "E-score": -0.0847}
{"Oligonucleotide": "ACTGCTTG", "E-score": -0.214}
{"Oligonucleotide": "GAGCAAGC", "E-score": -0.0682}
{"Oligonucleotide": "CTAGCCAC", "E-score": -0.144}
{"Oligonucleotide": "GCTGTAGA", "E-score": -0.0506}
{"Oligonucleotide": "CCCTGAAC", "E-score": 0.0212}
